Measurements pooled from the literature.
Numbered parts are unrelated; each lists some results of a single study. Substitutions count along the parent as printed.

Block 1
Target: CCNA1, cyclin fold, Cln2 fusion (human)
Method: yeast growth competition, sequencing
Sample: yeast
Setting: weak parent motif
Relative to: not given
Reading: higher = stronger binding
Parent: MICAL3 docking peptide (human); LQLRRQLSFSEDS; partner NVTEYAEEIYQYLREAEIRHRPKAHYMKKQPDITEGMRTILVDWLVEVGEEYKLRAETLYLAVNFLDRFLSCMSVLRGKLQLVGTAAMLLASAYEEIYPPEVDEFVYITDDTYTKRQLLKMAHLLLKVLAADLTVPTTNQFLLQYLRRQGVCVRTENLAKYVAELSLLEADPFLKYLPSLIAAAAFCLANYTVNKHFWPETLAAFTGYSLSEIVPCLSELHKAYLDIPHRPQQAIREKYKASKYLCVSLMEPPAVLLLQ
Change | normalised enrichment score
Q2K | 0.544
R4Y | 0.261
L3H | 0.223
Q2C | 0.498
S10I | 0.0782
Q6P | -0.0732
R5W | -0.164
S8H | 0.995
F9Y | 0.323
Q6V | 0.301
F9V | 0.162
S8N | 0.527
F9D | -0.274
D12M | 0.421

Block 2
Target: Sal-like protein 4, full length isoform A (SALL4, Homo sapiens, UniProt Q9UJQ4, residues 1-1053)
Chain of UniProt Q9UJQ4 (whole entry, looked up): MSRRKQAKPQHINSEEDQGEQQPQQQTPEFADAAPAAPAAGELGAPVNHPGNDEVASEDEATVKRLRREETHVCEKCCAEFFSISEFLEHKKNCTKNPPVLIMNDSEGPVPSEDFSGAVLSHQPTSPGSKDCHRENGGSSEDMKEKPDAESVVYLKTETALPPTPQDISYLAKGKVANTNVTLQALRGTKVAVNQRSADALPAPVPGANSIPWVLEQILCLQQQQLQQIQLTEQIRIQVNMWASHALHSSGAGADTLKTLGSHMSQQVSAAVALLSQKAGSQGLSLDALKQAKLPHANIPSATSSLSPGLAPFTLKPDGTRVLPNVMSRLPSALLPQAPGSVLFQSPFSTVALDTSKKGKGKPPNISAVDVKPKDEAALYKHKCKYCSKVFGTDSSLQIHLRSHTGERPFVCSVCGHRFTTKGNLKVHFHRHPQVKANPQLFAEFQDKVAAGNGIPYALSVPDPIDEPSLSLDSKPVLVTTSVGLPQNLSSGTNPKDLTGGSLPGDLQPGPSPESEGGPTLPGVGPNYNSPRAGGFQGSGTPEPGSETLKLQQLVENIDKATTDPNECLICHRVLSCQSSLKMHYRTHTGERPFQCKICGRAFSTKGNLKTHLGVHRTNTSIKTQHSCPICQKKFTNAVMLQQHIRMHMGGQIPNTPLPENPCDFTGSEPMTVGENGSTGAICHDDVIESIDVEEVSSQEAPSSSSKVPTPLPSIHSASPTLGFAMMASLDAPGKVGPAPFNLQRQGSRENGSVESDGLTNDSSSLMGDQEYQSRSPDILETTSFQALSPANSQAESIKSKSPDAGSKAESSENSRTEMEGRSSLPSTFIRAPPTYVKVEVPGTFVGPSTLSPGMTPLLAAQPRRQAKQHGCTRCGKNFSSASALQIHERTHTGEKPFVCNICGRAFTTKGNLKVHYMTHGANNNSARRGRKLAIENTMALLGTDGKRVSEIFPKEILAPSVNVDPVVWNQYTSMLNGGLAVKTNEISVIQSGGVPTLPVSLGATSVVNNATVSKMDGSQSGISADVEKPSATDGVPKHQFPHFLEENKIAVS
Method: universal PBM
Form: double-stranded DNA, one strand shown
Sample: in vitro
Tested at: 600 nM
Setting: 8-mer, flanks averaged, mean of replicates
Reading: higher = stronger binding
Strand | E-score
GCATCAAC | -0.0404
CTGTTTTA | 0.185
AGACAGCT | -0.106
ACACAGTA | 0.106
ATGGTCAC | -0.0459
ACGGGCGG | -0.343
ACGGTACC | -0.122
AAGGGTGT | -0.0943
CGTAGATC | -0.0197
CCTACGGA | -0.167
ACCGCCCC | -0.297
GCCAGAGA | -0.168
ATTCTACG | 0.000265
GAAATCTA | 0.211
CCATAAAA | 0.301
AAGGCCAG | -0.0897
AATGTGAA | 0.323
AGTCACGG | -0.0646
CCGTCCTC | -0.153
CGTCACGC | -0.174
CGTCGGAC | -0.262
AATCGACC | -0.0274
GCTCTACC | -0.186

Block 3
Target: RING finger protein unkempt homolog, zinc fingers 1-6, SBP tag (UNK, Homo sapiens, UniProt Q9C0B0, residues 30-357)
Chain of UniProt Q9C0B0 (30-357, looked up): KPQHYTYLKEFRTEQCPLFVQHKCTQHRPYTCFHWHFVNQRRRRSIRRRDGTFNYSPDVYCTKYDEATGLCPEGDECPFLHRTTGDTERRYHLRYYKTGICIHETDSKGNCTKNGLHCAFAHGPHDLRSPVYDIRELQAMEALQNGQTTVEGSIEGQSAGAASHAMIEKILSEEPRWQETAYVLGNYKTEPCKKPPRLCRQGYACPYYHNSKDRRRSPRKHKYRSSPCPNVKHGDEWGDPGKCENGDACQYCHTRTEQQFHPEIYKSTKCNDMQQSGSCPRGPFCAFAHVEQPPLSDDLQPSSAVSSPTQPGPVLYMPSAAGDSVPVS
Method: RNA Bind-n-Seq
Form: RNA
Sample: in vitro
Tested at: 100 nM
Setting: RNA with constant flanks, vertebrate orthologous sites, ends assumed
Relative to: input RNA pool
Reading: higher = stronger binding
Shared flanks, not repeated: GGGAGUUCUACAGUCCGACGAUC … CAACAGAGGAUUGAGCAUCA
Strand | bound/input enrichment [ratio]
CUACGGGCAGGGUGGUGGAGCCUAGGCCCUGCACCCACCAGCCACUUCAACCAGGCCAUUUAGUUCCAUGUUUUUUAUUUAACAGUGCCCUUACUUGUAUGUGCGUCCCAGACUGGAGAU | 1.09
AUAAGAACUCUUGCAGUCUUAGAUGUUAUAAAAAAUAUAUAUCUGAAUUGUAAGAGUUGUUAGCACAGUUUUUUUUUGUUUGUUUGUUUUUAAACACUUGUUUUGGGUACAAGGCAUUUC | 0.509
AAUAGUUUUAAGCUUGUUUGCACAGUUUUUCCCUUCCAUUGGAGAUGGAAUUCAUUGCCUUAGGUCUUUUUAAUAGUGUAUUGUUAUCGUUGGGCUGGCUCUAUGCUUGAAAACCAGUUU | 1.93
UAUUAGUGUCAUACCAGCAUAUUAACCUCUCGUCUGUGCACAGCUUCAAAUGUUACCGUCUAGUUAGAUUUUUAUUUAAAAUAUGAAAAACUGCUUUUCCCAAGACGUUUUUUAAAAGAC | 1.54
UGGGCGUCCCCUCUGGGGAGCCGCUGGCUGCUUAGCGCUGUUUGAUUUUUGACCUUGACAUAGUAGAUAGGCUUGUGGUUUUUUUUUUAAUUUAAAGAUAUUAAGACUUAAUUCACUAAA | 0.513
UGAUGGCCGCUUCUCCCCUGCCUCAGUGAGGUAAAGUCUCCCUUGGCAUUUGGUUGGUACCAGAGCCAGCCAUACCUAAUACAGGUUUCCACAUUUCUUUCACACUCAUAGUCAUCUUCA | 0.644
AGUAGUUUUAAGCUUGUUUGCACAGUUCUUUUUUUCCAUUGGAAAUGGAAUUCAUUGCCUUAGGUCUUUUUAAAUACUGUAUUAUCGUUGGGGCUGGCUCUAUGCUUGAAAACCAGUUUA | 1.38
UACCCUCCCAGGACCCAGUGGUGCGGCCUGGGCCCACUGGCCACAUCAGCCAGGCCGUUUCAGCCUUUUUUUUUCUUUUUUUUUUUUUUUUAACAGUGCCCUUAUUAUUAUCCUAUACAU | 1.68

Block 4
Target: RNA binding protein fox-1 homolog 2, RRM domain, GST-SBP tag (RBFOX2, Homo sapiens, UniProt O43251-10, residues 100-194)
Method: RNA Bind-n-Seq
Form: RNA
Sample: in vitro
Tested at: 365 nM
Setting: natural RNA segment, single round, ends assumed
Relative to: no-protein control
Reading: higher = stronger binding
Shared flanks, not repeated: GGGAGUUCUACAGUCCGACGAUC … UGGAAUUCUCGGGUGCCAA
Strand | RBNS enrichment (R)
UUAGACUUAUUUUCUAGUGGCUUCAACACAUGUUCCAACUUGAAUUUUUUUCUUUUCUUCUUUAAGUAGCUGAAUGUAUAUAUCAGGGAGGAAGAAGCAAGCAAAACUGA | 0.427
CCCGGCUAUCAGCACUGUUCUGAUUGCAGACGUUUCACAGCAUGUUUGGCUUUUGGUAAAUUCAAUCCAGGAAAGACUAGCAUGUGCACUUUAUCUCAUAAUCUUCCAGU | 3.38
UGAGAGAAAUUUUAAAAAGUCUCUAUUUAAAUUCUUUUUUUAAAUUUCUCUUCAGUUGGUGUGUUUCCGGGAUGUCUUAUUUUUAGAUGGUUACACUGUUAGAACACUAU | 0.454
CAUUCAUUAAUGUUAAGGCUAAUACAUUUAAGAUCUUGUUUAAACAAUGUUUCUUCUGCAACUGGCUACUCCUCUUAUAUUAAUGCAUACACUUUUGUAAAGAAGUAUAU | 0.364
CGCCUCUAGUAGAUGGUAGUGGUGGGGCUAGUGUGUGGCUGUUACCUGGGCCGCUCAAAUUCAUUCCAGGGAGGAGGCUCCACUGCAUUCUUUGGCUGUGCCCUGAGGGU | 1.95
GUUUGUUUGCAAAUAUCAAACAUUGUUAUGCAAGAAAUUAUUAAUUACAAAAUGAAGAUUUAUACCAUUGUGGUUUAAGCUGUACUGAACUAAAUCUGUGGAAUGCAUUG | 0.597
AACCUAUCCUCCUCACCAGAAGAGCCUGUGUUUUUCUGCUGAACACCCACUGUUCCUGAGGACUCCUGCUGGGAAGUCCCAAGGGAUAGUUCUAGCCCUUCUGCCUGUGU | 0.38
GGUGGAAAAGACUCAAAGGCACUUGGGCCAUUCAGGACCACCCCAGCUGUGUCUGGGUUGGUGGGGAAAUGAUGGAGAACCAGCCAGUGGGGCUGUCAGCAGUGGGGGCU | 0.788

Block 5
Target: Histone acetyltransferase KAT6A, winged helix 1, GST fusion (KAT6A, Homo sapiens, UniProt Q92794, residues 1-85)
Method: protein binding microarray
Form: double-stranded DNA, one strand shown
Sample: in vitro
Tested at: not given
Setting: 8-mer, flanks averaged, mean of 2 arrays, mostly near background
Relative to: not given
Reading: higher = stronger binding
Residues (chain): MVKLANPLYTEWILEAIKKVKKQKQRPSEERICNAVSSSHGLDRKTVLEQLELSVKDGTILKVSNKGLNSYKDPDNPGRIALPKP
Strand | E-score
CCTCCGAG | 0.0393
AGTCCGTA | 0.207
CAACGGTA | 0.0482
GTCAGTTA | -0.017
CACGCAGA | 0.00461
TAAGGGGA | -0.207
CCTTAACG | 0.113
CTGACCGA | 0.0568
AGAGATCT | -0.174
TAGTTATA | -0.0805
ACTGGTTG | -0.0761
AAGGAATA | -0.0409
CGCATAGC | 0.354
CTTCCGTA | 0.187
GCCTCGAC | 0.101
CTAAACAA | -0.229
CGTCAAGC | 0.0361
CGACCTCA | -0.16
ACGTCTTG | -0.0285
AAAACCGT | 0.0353
ACCCAACA | -0.136
CCCCGATC | -0.0086
CCGGTTCG | 0.141
GGGGAAAC | 0.151
ATCGACAC | -0.0732

Single results of other studies
Substance | target | assay | system | setting | how to read | quantity | result
PhoQ, residues 284 288 289 292 302 303 NSMLDC | PhoP, residues 12 14 15 18 19 NYFTV (Escherichia coli, UniProt P23836) | Sort-seq, item: YFP reporter | E. coli | PhoQ-PhoP variant library, with: 10 µM Mg2+ | relative to: high Mg2+ state, higher = stronger signaling | fold induction | 11

Excerpt of the above (block 5):
Strand | E-score
GCCTCGAC | 0.101
CGCATAGC | 0.354
GGGGAAAC | 0.151
CGACCTCA | -0.16
GTCAGTTA | -0.017
ACTGGTTG | -0.0761
ACCCAACA | -0.136
AAAACCGT | 0.0353
